Published values from different studies.
Each line is one published result; not all experiments were run side by side. In brackets after ≈: the same amount, converted by molar mass.

For `O=[N+]([O-])c1ccc(O)cc1`, the inhibition was greater than 50% (human UGT; glucuronidation; human liver microsomes; 200 µM, 60 min, added: FBI-COOH 50 µM).
`Cc1nnc(SCC2=C(C(=O)O)N3C(=O)[C@@H](NC(=O)Cn4cnnn4)[C@H]3SC2)s1` gave a lowest IC30 of greater than 30 µM (seizure ion channel panel; ion current, inhibitor; lowest across channels).
`Cc1oc(=O)oc1CN1CCN(c2cc3c(cc2F)c(=O)c(C(=O)O)c2n3C(C)S2)CC1` (centres unmarked) gave a maximum response of -13.9% (biotinylated rabbit IgG; 11-point dose-response, protein A and streptavidin binding).
`C[C@H](C(=O)N[C@H]1COc2ccccc2[C@@H]1S(C)(=O)=O)c1ccc(F)cc1` gave an inhibition of 5% (nicotinic acetylcholine receptor, human; binding; 10 µM, Eurofins selectivity panel).
The inhibition of `O=C(Cc1cc(C(F)(F)F)cc(C(F)(F)F)c1)NC1CCOC1=O` (centres unmarked) is reported as 16% (ExpR2 (Pectobacterium carotovorum); cellulase activity, antagonist; Pectobacterium carotovorum, single-ExpR2 strain; 5 µM, 4 h, added: OHHL 5 µM).
`O=C(O[C@@H]1O[C@@H]2COC(=O)c3cc(O)c(O)c(O)c3-c3c(cc(O)c(O)c3O)C(=O)O[C@H]([C@H]1O)[C@@H]2O)c1cc(O)c(O)c(O)c1` gave a maximum response of -27.1% (biotinylated rabbit IgG; 11-point dose-response, protein A and streptavidin binding).
`O=S(=O)(NCCNC/C=C/c1ccc(Br)cc1)c1cccc2cnccc12`: “embryos at morula stage” 26.3% (PKA; inhibitor; mouse zygotes; 20 µM, Post hCG injection, 96 h, early embryonic development).
With `CSCCNc1nc(SCCC(F)(F)F)nc2c1ncn2[C@@H]1O[C@H](COP(=O)(O)OP(=O)(O)C(Cl)(Cl)P(=O)(O)O)[C@@H](O)[C@H]1O` the maximum response was 19.7% (biotinylated rabbit IgG; 11-point dose-response, protein A and streptavidin binding).
`CN1[C@@H]2CC[C@H]1C[C@@H](OC(=O)C(CO)c1ccccc1)C2` (some centres unmarked) gave a lowest IC30 of greater than 30 µM (seizure ion channel panel; ion current, inhibitor; lowest across channels).
With `CCOP(=S)(OCC)SCn1c(=O)oc2cc(Cl)ccc21` the IC50 was 2.87 µg/mL (nanobody A4; binding, ic-ELISA; added: H1-OVA coating antigen).
The IC50 of `COc1cc(Nc2ncc(F)c(Nc3ccc4c(n3)NC(=O)C(C)(C)O4)n2)cc(OC)c1OC` is reported as greater than 10 µM (KA potassium channel).
`O=C(Cc1ccc(I)cc1)N[C@H]1CCOC1=O` has an inhibition of 68% (ExpR2 (Pectobacterium carotovorum); cellulase activity, antagonist; Pectobacterium carotovorum, single-ExpR2 strain; 5 µM, 4 h, added: OHHL 5 µM).
`CCOP(=S)(OCC)Oc1ccc(Cl)cc1Cl` gave a cross-reactivity of less than 1% (nanobody A4; ic-ELISA; concentration not given; reference: coumaphos IC50 over compound IC50, mass basis).
`O=C(Cc1ccccc1)NC1CCOC1=O` (centres unmarked) has an activation of 21% (ExpR2 (Pectobacterium carotovorum); cellulase activity, agonist; Pectobacterium carotovorum, single-ExpR2 strain; 200 µM, 4 h; reference: OHHL).
With `CCOC(=O)[C@H](CCc1ccccc1)N[C@@H](C)C(=O)N1CCC[C@H]1C(=O)O` the maximum response was 21.5% (biotinylated rabbit IgG; 11-point dose-response, protein A and streptavidin binding).
With `O=C1CC2(CCCC2)CC(=O)N1CCCCN1CCN(c2ncccn2)CC1` the lowest IC30 was greater than 30 µM (seizure ion channel panel; ion current, inhibitor; lowest across channels).
`Oc1cc(Cl)ccc1Oc1ccc(Cl)cc1Cl` has a cross-reactivity of 100% (nanobody T2 (Bactrian camel); ELISA, IC50-based; concentration not given, coating antigen T2/H3-BSA).
`Nc1nc2c(ncn2[C@@H]2O[C@@H]3COP(=O)(O)O[C@H]4[C@@H](O)[C@H](n5cnc6c(N)ncnc65)O[C@@H]4COP(=O)(O)O[C@@H]2[C@@H]3O)c(=O)[nH]1`: “time to peak STING oligomerization” no more than 10 min (STING (human); Blue-Native PAGE; HeLa Kyoto with inducible STING; concentration not given).
`O=C(Cc1ccc2ccccc2c1)N[C@H]1CCOC1=O` gave an inhibition of 5% (ExpR2 (Pectobacterium carotovorum); cellulase activity, antagonist; Pectobacterium carotovorum, single-ExpR2 strain; 5 µM, 4 h, added: OHHL 5 µM).
The lowest IC30 of `CNCC[C@@H](Oc1ccccc1C)c1ccccc1` is reported as 3.94 µM (seizure ion channel panel; ion current, inhibitor; lowest across channels).
`Cc1ccc(-c2ccc(C)cn2)nc1` gave a maximum response of 3.55% (biotinylated rabbit IgG; 11-point dose-response, protein A and streptavidin binding).
`CCOP(=S)(OCC)Oc1cnc2ccccc2n1` has an IC50 of 0.327 µg/mL (nanobody A4; binding, ic-ELISA; added: H1-OVA coating antigen).
For `N[C@@H](Cc1c[nH]c2ccc(Cl)cc12)C(=O)O`, the MIC was 12.5 µM (≈ 2.98 µg/mL) (tRNA methyltransferase TrmD, Escherichia coli; Escherichia coli, MG1655 tolC+ engineered, expressing TrmD, M9 medium with arabinose).
The inhibition of `CCCCCC(=O)CC(=O)N[C@H]1CCOC1=O` is reported as 26% (ExpR2 (Pectobacterium carotovorum); cellulase activity, antagonist; Pectobacterium carotovorum, single-ExpR2 strain; 5 µM, 4 h, added: OHHL 5 µM).
`CN(C)C(=O)c1cc2cnc(Nc3ccc(-c4ccc5c(=O)cc(N6CCOCC6)oc5c4)cc3)nc2n1C1CCCC1`: “number of kinases inhibited” 11 (kinase panel; binding, KINOMEscan; 1.0 µM, of 468 kinases).
With `CCCCCC(=O)N[C@H]1CCOC1=O` the activation was 94% (ExpR2 (Pectobacterium carotovorum); cellulase activity, agonist; Pectobacterium carotovorum, single-ExpR2 strain; 200 µM, 4 h; reference: OHHL).
With `CCOC(=O)c1ccc(OC(=O)CCCCCN=C(N)N)cc1.CS(=O)(=O)O` the Hill slope was -1.12 (trypsin, human; inhibitor).
`COP(=S)(OC)Oc1ccc([N+](=O)[O-])c(C)c1` gave an IC50 of greater than 4 µg/mL (nanobody A4; binding, ic-ELISA; added: H1-OVA coating antigen).
`C[N+](C)(C)CCOP(=O)(O)O` has a ΔTm of 6.6 °C (SAR11_0797 protein (Candidatus Pelagibacter ubique); thermal stabilisation, differential scanning fluorimetry).
For `C[C@H](CCC(=O)O)[C@H]1CC[C@H]2[C@@H]3CC[C@@H]4C[C@H](O)CC[C@]4(C)[C@H]3C[C@H](O)[C@]12C`, the maximum response was 25.9% (biotinylated rabbit IgG; 11-point dose-response, protein A and streptavidin binding).
With `CCOP(=S)(OCC)Oc1nc(Cl)c(Cl)cc1Cl` the cross-reactivity was less than 1% (nanobody A4; ic-ELISA; concentration not given; reference: coumaphos IC50 over compound IC50, mass basis).
The maximum response of `CCN(CC)C(=O)/C(C#N)=C/c1cc(O)c(O)c([N+](=O)[O-])c1` is reported as -30.4% (biotinylated rabbit IgG; 11-point dose-response, protein A and streptavidin binding).
With `O=C(Nc1cccnn1)N1CCN([C@@H]2CCOc3cc(C(F)(F)F)ccc32)CC1` the inhibition was 35% (I1; Cerep BioPrint; 20 µM).
The inhibition of `O=C(Cc1ccccc1I)N[C@H]1CCOC1=O` is reported as 55% (ExpR2 (Pectobacterium carotovorum); cellulase activity, antagonist; Pectobacterium carotovorum, single-ExpR2 strain; 5 µM, 4 h, added: OHHL 5 µM).
`CC[C@H](C)[C@@H]1NC(=O)[C@H]([C@@H](C)O)NC(=O)CNC(=O)[C@H](CCC(=O)O)NC(=O)[C@H](CCCCN)NC(=O)[C@H](CC(C)C)NC(=O)[C@H](Cc2ccccc2)NC(=O)[C@H](CCCCN)NC(=O)[C@@H]2CSSC[C@H](NC(=O)[C@@H](N)CCC(=O)O)C(=O)N[C@@H](CCC(=O)O)C(=O)N[C@@H](CO)C(=O)NCC(=O)N3CCC[C@H]3C(=O)N[C@H]3CSSC[C@@H]4NC(=O)[C@H](Cc5ccc(O)cc5)NC(=O)[C@H](CC(=O)O)NC(=O)[C@H](CC(=O)O)NC(=O)[C@H](CCSC)NC(=O)[C@H](CC(=O)O)NC(=O)[C@H](CC(=O)O)NC(=O)CNC(=O)[C@H](CCCNC(=N)N)NC(=O)[C@H](C)NC(=O)[C@H](CCCNC(=N)N)NC(=O)[C@H](CCCCN)NC(=O)[C@H](CSSC[C@@H](C(=O)N5CCC[C@H]5C(=O)N[C@@H](CCCNC(=N)N)C(=O)N[C@@H](CC(N)=O)C(=O)N5CCC[C@H]5C(=O)N[C@@H](Cc5c[nH]cn5)C(=O)N[C@@H](CCCCN)C(=O)NCC(=O)N5CCC[C@H]5C(=O)N[C@@H](C)C(=O)N[C@H](C(=O)O)[C@@H](C)O)NC(=O)[C@H](CC(=O)O)NC(=O)[C@H](CSSC[C@H](NC3=O)C(=O)N[C@@H](CCCNC(=N)N)C(=O)N[C@@H](CC(N)=O)C(=O)N2)NC(=O)[C@H]([C@@H](C)O)NC(=O)[C@H](CCCCN)NC(=O)CNC(=O)[C@H](CC(N)=O)NC4=O)NC1=O` gave an IC50 of 0.0058 µM (integrin αvβ3 (human); cell adhesion to vitronectin, inhibitor; U-87 MG; 2 h, 37 °C).
The IC50 of `C[C@@H]1N=C(c2ccccc2F)c2cc(Br)ccc2-n2cnc(C(=O)O)c21` is reported as 0.0251 µM (rat brain GABA-A receptor; [3H]flunitrazepam binding; rat brain extract).
For `C[C@@H]1CCO[C@H]2Cn3cc(C(=O)NCc4ccc(F)cc4F)c(=O)c(O)c3C(=O)N12`, the maximum response was -19.1% (biotinylated rabbit IgG; 11-point dose-response, protein A and streptavidin binding).
For `CCCCCCCCCC(=O)CC(=O)N[C@H]1CCOC1=O`, the activation was 17% (ExpR2 (Pectobacterium carotovorum); cellulase activity, agonist; Pectobacterium carotovorum, single-ExpR2 strain; 200 µM, 4 h; reference: OHHL).

A few entries again:
`CCOP(=S)(OCC)Oc1cnc2ccccc2n1` has an IC50 of 0.327 µg/mL (nanobody A4; binding, ic-ELISA; added: H1-OVA coating antigen).
For `N[C@@H](Cc1c[nH]c2ccc(Cl)cc12)C(=O)O`, the MIC was 12.5 µM (≈ 2.98 µg/mL) (tRNA methyltransferase TrmD, Escherichia coli; Escherichia coli, MG1655 tolC+ engineered, expressing TrmD, M9 medium with arabinose).
The inhibition of `CCCCCC(=O)CC(=O)N[C@H]1CCOC1=O` is reported as 26% (ExpR2 (Pectobacterium carotovorum); cellulase activity, antagonist; Pectobacterium carotovorum, single-ExpR2 strain; 5 µM, 4 h, added: OHHL 5 µM).
`CN(C)C(=O)c1cc2cnc(Nc3ccc(-c4ccc5c(=O)cc(N6CCOCC6)oc5c4)cc3)nc2n1C1CCCC1`: “number of kinases inhibited” 11 (kinase panel; binding, KINOMEscan; 1.0 µM, of 468 kinases).
With `CCCCCC(=O)N[C@H]1CCOC1=O` the activation was 94% (ExpR2 (Pectobacterium carotovorum); cellulase activity, agonist; Pectobacterium carotovorum, single-ExpR2 strain; 200 µM, 4 h; reference: OHHL).
With `CCOC(=O)c1ccc(OC(=O)CCCCCN=C(N)N)cc1.CS(=O)(=O)O` the Hill slope was -1.12 (trypsin, human; inhibitor).
